Experimental data from different studies.
A part holds a random share of what one study measured.

Study 1 — technique: protein-binding microarray; molecule type: double-stranded DNA, one strand shown; matrix: in vitro; tested at: 0.8 µM; setting: whole 60-bp probe, no competitor; direction: higher = stronger binding; quantity: fluorescence intensity; all sequences stand within: … GTCTTGATTCGCTTGACGCTGCTG
Target: Centromere-binding protein 1, full length, N-terminal tag (CBF1, Saccharomyces cerevisiae, UniProt P17106, residues 1-351)
Chain of UniProt P17106 (whole entry, looked up): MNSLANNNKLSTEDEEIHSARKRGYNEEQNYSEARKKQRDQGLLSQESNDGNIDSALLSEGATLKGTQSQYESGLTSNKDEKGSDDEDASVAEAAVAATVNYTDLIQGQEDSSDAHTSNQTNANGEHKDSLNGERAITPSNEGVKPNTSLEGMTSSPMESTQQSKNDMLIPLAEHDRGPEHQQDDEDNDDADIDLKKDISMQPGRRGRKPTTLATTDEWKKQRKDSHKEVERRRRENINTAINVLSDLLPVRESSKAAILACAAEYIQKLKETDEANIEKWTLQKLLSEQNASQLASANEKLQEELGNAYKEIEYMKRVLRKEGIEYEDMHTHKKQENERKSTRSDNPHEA
CTACCACACCTTCCCCACGCAGCAAGCGATAACTTC: 539 a.u.
GAAAAGGTATCTCTGATGCTGACATTGCTAAGTTAG: 533 a.u.
CTAGCCCAAACCAACGTCGTGATTGCTTCTTCCTTC: 592 a.u.
CTAGCCGTTGTTCATACCGTGACTAATAGTGGCTTC: 791 a.u.
CTACGACCGAATCCACCCGTGATGCCAACTTCATTC: 703 a.u.
GAAGTAGATTCTCCTGATGACCCATTCATGACATAG: 537 a.u.
GAACACAAAAAAATGCACATGATGTTTTATTATTAG: 1300 a.u.
CTAGTAAATTGACCCAGCGTGACGACAGTAGACTTC: 658 a.u.
GAATACACATTCGTTCTCCTGATCACGGTCTCATAG: 1190 a.u.
CTATCATCTTCCTGGAACGTGACTTCCGTAGGCTTC: 3640 a.u.
CCTAACTACTATACCCACGACTAATAGCTTCGTACA: 506 a.u.
CTAAATGCGACGAATGGCATCATGCCTATTATTTTC: 532 a.u.
GAATCTGTGCATTGGCATGTGCAAGCATTCGATTAG: 591 a.u.
TGTACGAAGCTATCCCACCAGATTATAGTAGTTAGG: 522 a.u.
CCTAACTACTATAGGTGCGTGGAATAGCTTCGTACA: 528 a.u.
CTAACCTGAATGATTAATCTGATGCTTGCAATATTC: 517 a.u.
CTACACACGCACACGCGCACGCATCCACATTCATTC: 634 a.u.
GAATATTAGAAGGATCAGCTGAAACCTAAAGATTAG: 589 a.u.
CTATCTTTTACTAGCCACGTGAAATGATGATAATTC: 3580 a.u.
GAATAAAACTAGTGGCACGTTTAAATGACTTTTTAG: 556 a.u.

Study 2 — technique: RNA Bind-n-Seq; molecule type: RNA; matrix: in vitro; tested at: not given; relative to: input RNA pool; direction: higher = stronger binding; quantity: bound/input enrichment
Target: RING finger protein unkempt homolog, zinc fingers 1-6, GST-SBP tag (UNK, Homo sapiens, UniProt Q9C0B0, residues 30-357)
Setting: RNA with constant flanks, human and mouse sites, ends assumed
All sequences stand within: GGGAGUUCUACAGUCCGACGAUC … CAACAGAGGAUUGAGCAUCA
Target sequence (chain): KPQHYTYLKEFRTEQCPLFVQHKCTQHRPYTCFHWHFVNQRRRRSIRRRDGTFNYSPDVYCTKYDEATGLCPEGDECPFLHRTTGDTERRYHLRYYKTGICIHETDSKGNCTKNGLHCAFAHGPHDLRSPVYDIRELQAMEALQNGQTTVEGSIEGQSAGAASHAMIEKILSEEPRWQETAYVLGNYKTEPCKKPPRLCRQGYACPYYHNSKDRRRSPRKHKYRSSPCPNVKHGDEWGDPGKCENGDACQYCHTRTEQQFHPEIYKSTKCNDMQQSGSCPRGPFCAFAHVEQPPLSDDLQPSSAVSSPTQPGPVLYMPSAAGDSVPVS
AAUCAGUCAAAAACGACACCUUUUAAAGAUUGCAAAGUAUUGAAACAAAGACCAAGAUUUGUAGCUCUGAAGAAACAACCAUCCUAUAUUGGAGGACAUGAGGGCUUAGAACUGAGAGAC: 0.279 ratio
CUCUUAAAAGACUAUGAAGAUAAAAUUCGGGAGGAGUAUGAGCAAAUCCUCAAUACCAAACUAGCAGAACAAUAUGAAUCUUUUGUGAAAUUCACACAUGAUCAGAUUAUGCGACGGUAU: 0.25 ratio
GAUAAUGACCAUCUUCAACUUUCUGCAGAAGUCGUGGAAGGUAGUAGAUACCAGGAAUCAUUAGGCAAUACAGUAUUUGAGUUGGAAAACAGAGAGGCAGAGGCAUACACUGGUCUUUCA: 0.973 ratio
UAUGAUGUCCUGGUUGCCAUGACUAUCUUUUUCAACACUCACAAUGAGCCAGUGCGGCAGUUGGCUAUUUUCUGUCCCCAUGUGGCACUCCAAACAACGAUCUGUGAAGUCCUGGAACGC: 0.17 ratio
CGGGAGUUCAUGAUCAAAACCCGUCGUAGGAAGGGCCUGAGUGAAGAUGUGAGCAUCAGCAAGUUCUUCGACGAUCCUAUGUUGCUGGAGCUCGCCAAACAGGAUGUUGUGCUCAAUUAU: 0.247 ratio
UAAUAUGUUAGUAAGUUACAUUUUAAAUAAUGCUCAUGUGACAAUACUCCCAAUCAAUGGCUUAUAGAAUUUAAAGAUCUGUAUAUUAGAUUUUGGCUUAAAGGCAUGAGAAGUAUAAGA: 4.24 ratio
UUUAUCAGAACACUUCUGGCUGUUACAAGACCAUUUAUUAGCUCGAAAUUCAGCCAAAAAAUUAGAUACGUGUUUAAUUUGGCAGAACUAGCAGAACUUGUCCCCAUGGAAUACGUUGGC: 0.762 ratio
AGAAAAAUACAUCUUUCUGAAUUAAUGCUGGAGAAAUGCCCUUUUCCUGCUGGCUCGGAUUUAGCACAAAAGUGGCAUUUGAUUAAACAGCAUACCGCCCCUGUGAGCCCACACUCAACA: 0.0992 ratio
AUGUCUGCCAGAACACAAUUUAUAUGCCGAAUUAUUGGCUCCAUUAAACUUUUUAAAAACUUUAGCACUGGUUACUUUUUUCCAUUGCAUUCAAUAUGUAGCACCUCCUCACCUCAUGAG: 7.33 ratio
ACACAUAGAGAAGCUGCAUUGUGGAUUAUAUGGGAAUCACUUUGUGAUGCUUUCUGCUGUUAGUUUUUCUUGGGUUUUUGUUUGUUUUGUUUGCAAAUCUGAUGUCUCAUCACUGCAGGU: 0.357 ratio
GGGUCAGCUGCCGCCACUUCUAAUCCUCAUCAUGACAACGUCAGGUAUGGCAUUUCAAACCUAGAUGCAGCCAUUGAAGGAGCUUCAGAUGACAUGACUGUGGUAGAUGCAGCUUCAUUA: 0.149 ratio

Study 3 — technique: RNA Bind-n-Seq; molecule type: RNA; matrix: in vitro; tested at: 365 nM; relative to: no-protein control; direction: higher = stronger binding; quantity: RBNS enrichment (R)
Target: RNA binding protein fox-1 homolog 2, RRM domain, GST-SBP tag (RBFOX2, Homo sapiens, UniProt O43251-10, residues 100-194)
Setting: natural RNA segment, single round, ends assumed
All sequences stand within: GGGAGUUCUACAGUCCGACGAUC … UGGAAUUCUCGGGUGCCAA
Target sequence (chain): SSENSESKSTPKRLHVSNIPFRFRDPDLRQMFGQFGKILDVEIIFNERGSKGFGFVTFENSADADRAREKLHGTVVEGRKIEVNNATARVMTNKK
CCUCCCAGCGCUCUGGGAGCCACGCCUAUGCCCUGCCCUUCCUCAGGGCCCCUGGGGAUCUUGCCCCCUUUGACCUUCCCCAAAGGAUGGUCACACACCAGCACUUUAUA: 0.241
AAGCAAGAGACUAAUAGGUUUUGGAACAGAGACUCUUCUGCCUCCACAGGGCAUGGAACCCUGAACCAGAAUGUCCCUGCAGUGCCGGAGAGGUCGCCGUGGGAAAACAG: 0.243
ACCAGGAGAACCACUACAUGCAACUCACGCCCCUUGCCCUAUCACAGGGUUGGGCCUAGACGGAGUCCCCUGCAAUUAGCUUUCUAGGAUCUACCACACUUCUGUGAAAG: 0.282
GCACAUUCAUUUUCUCAGUUGAAGAAGAGAAAAUUUGAAAAUGUCCUUAUGCUUUUAGAGUUGCAACUUAAGUAUAUUUGGUAGGGUGAGUGUUUCCACUCAAAAUAUGU: 0.665
GAACUCUUUAUAAAACCGUCCGAUCUUGUGAGACUUAUUCACUAUCACAAGAACAGCACAGGAAAGUUCUGCCCCCGUGAUUCAAUUACCUCCCACUUGGUCCCACCCAC: 0.43
GGUCUGGAAGGUCUGGUCUCCCUUGGUCUUCCAUGGGAUGCUUAAUGUGGAGGGGAGAUAGAGAUUAACCAGCCGUUUUGUGAUGCCGUGGAUUGAUCAAGUCUUCUGAU: 2.13
GAUAAUAGACUUGGAGUGCCGCUGAGGCUGAGAUCUGUGGCCAUUUACAUAGCACAUCAUUCCUCCUAUAGGGAUGAACUUUUUUUCCGACACAAAAAGUAGCCACUGCG: 0.397
CAGGGACAGACCUGCUGCCAAGUGAGCCUGAUGGGCCACAGGUGUGCUCUUCUAAAUGGCCUGUGAGCCAGGCUGUGGGAACUCUAGCUGCUGUCAGCCCCUCCUGUAGG: 0.484
UAAGCACUGGUAGUCUGGAGUACCUGGUACUGAGUAACUCUAUAAUUGUGUUUUGUGUUCACCAUAUACAGAUCAUUUCUCAUCUGUAGUGUGCCCCAAAUGCAGCUUCA: 0.414
CGCCAUCUUCCUGGACAGAGUGAGCUGUCAGUCACUCCCCAGGUUUUUUUUGUUUUUGGGGUUUUUUUUUUUUUGUACCAAGUAGCUAGAAAGUGGGACCUAGGGCCCUG: 1.55
AAUGUUAUCUUGUGAAAGGUGUUGCUGUUUGAAUUGAUGAGAAAUGGAAGAUGAGAACUCCCUAAGAGUUCUCAUAAUAAAUCAUCUCAUCACAAAUCAAUACGGUAUAC: 0.249
CAAAAGGAAAAAAAAAAUCCCAAUCCUCAAAAGGUCAAGGCCCCGUCCCCUGUUGUCGGUGAUUUGUUUGUCUUUCUGAUAGGUUGAAAAUUGUGUAAUAAACUUGAUGA: 0.661

Study 4 — technique: protein-binding microarray; molecule type: double-stranded DNA, one strand shown; matrix: in vitro; tested at: 2540 nM top; setting: 60-bp whole probe; with: salmon DNA 0.4 mg/ml; relative to: random background probes; direction: higher = stronger binding; quantity: fitted relative affinity; all sequences stand within: GCCTAGCAC … GTCTTGATTCGCTTGACGCTGCTG
Target: Interferon regulatory factor 3, full length, phosphomimetic (IRF3, Homo sapiens, UniProt Q14653, residues 1-427, S386D/S396D/S398D/S402D/T404D/S405D)
Target sequence (chain): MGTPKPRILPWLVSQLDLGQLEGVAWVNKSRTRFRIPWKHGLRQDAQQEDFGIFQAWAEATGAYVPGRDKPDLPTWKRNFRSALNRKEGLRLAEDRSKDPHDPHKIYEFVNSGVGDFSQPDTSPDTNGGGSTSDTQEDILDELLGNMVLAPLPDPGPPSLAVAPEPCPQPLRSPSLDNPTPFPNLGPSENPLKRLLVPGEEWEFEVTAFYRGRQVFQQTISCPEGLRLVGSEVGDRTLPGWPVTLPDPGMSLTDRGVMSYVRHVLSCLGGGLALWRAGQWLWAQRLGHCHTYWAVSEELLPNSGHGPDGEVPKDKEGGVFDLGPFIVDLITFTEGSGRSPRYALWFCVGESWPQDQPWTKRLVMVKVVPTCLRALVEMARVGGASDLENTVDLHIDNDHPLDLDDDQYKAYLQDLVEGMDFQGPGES
AAGACTTTGCTCTGTGCATAGGTGCTA: -0.542 z-score
TCCCCTCTAGGTCTTCTGAAGTGCTAG: 0.185 z-score
TTCATTTTGTTCATCATTGCGTGCTAG: 0.677 z-score
GATGGTCTCGGTCTCGGGACGTGCTAG: 0.736 z-score
CAGCTTTTATCCCTGACAGAGTGCTAG: 0.527 z-score
TTAGGACTGGGGTATCGATTAGTGCTA: -0.568 z-score
GACGGACTGGGTCTCAGGACGTGCTAG: -0.633 z-score
TTTTTTCTACTTCTGTTTTTGTGCTAG: 2.33 z-score
GACGGTCTCGGTTTGGGGACGTGCTAG: 1.37 z-score
ATTGTCTTCCCCATCTTGTTGTGCTAG: 0.923 z-score
GACGAACTGGGGTTTCGAGGCGTGCTA: 0.0592 z-score
GACGTTTTCGGGTTTCGAGACGTGCTA: 3.19 z-score
TTAGATTTCGGGACTGGATAAGTGCTA: 1.52 z-score
TTAAATTCCAGTTTCGATTAGTGCTAG: 5 z-score
GACTATTTCAGTCTCGAGACGTGCTAG: 1.68 z-score
GACGGTCTCGGTTTCTGGACGTGCTAG: 2.88 z-score
GACGAACTGAGTTTTGAGACGTGCTAG: 0.0364 z-score
TTAGGACTGCTTCTCCTTTGGTGCTAG: -0.23 z-score
CTCAGTTTATTTATTTTTACGTGCTAG: 0.693 z-score
ACACTCTTCTTTTGCTAATTGTGCTAG: 1.43 z-score
AACGGACTGGACACTGGGGACGTGCTA: -0.557 z-score
AGGCCCTTTGCTTTCCTGATGTGCTAG: 0.617 z-score

Some of these lines once more (study 4):
CAGCTTTTATCCCTGACAGAGTGCTAG: 0.527 z-score
TTAGGACTGGGGTATCGATTAGTGCTA: -0.568 z-score
GACGGACTGGGTCTCAGGACGTGCTAG: -0.633 z-score
TTTTTTCTACTTCTGTTTTTGTGCTAG: 2.33 z-score
GACGGTCTCGGTTTGGGGACGTGCTAG: 1.37 z-score
ATTGTCTTCCCCATCTTGTTGTGCTAG: 0.923 z-score
GACGAACTGGGGTTTCGAGGCGTGCTA: 0.0592 z-score
GACGTTTTCGGGTTTCGAGACGTGCTA: 3.19 z-score
TTAGATTTCGGGACTGGATAAGTGCTA: 1.52 z-score
